Measurements pooled from the literature.
Protocols differ between the studies behind these lines. Several values in a cell are separate wells, animals, samples, runs or records. ± marks the error that the study gave.
U2AF2: U2AF2 148-342 (Homo sapiens, UniProt P26368)
UniProt P26368, sequence (whole entry, looked up): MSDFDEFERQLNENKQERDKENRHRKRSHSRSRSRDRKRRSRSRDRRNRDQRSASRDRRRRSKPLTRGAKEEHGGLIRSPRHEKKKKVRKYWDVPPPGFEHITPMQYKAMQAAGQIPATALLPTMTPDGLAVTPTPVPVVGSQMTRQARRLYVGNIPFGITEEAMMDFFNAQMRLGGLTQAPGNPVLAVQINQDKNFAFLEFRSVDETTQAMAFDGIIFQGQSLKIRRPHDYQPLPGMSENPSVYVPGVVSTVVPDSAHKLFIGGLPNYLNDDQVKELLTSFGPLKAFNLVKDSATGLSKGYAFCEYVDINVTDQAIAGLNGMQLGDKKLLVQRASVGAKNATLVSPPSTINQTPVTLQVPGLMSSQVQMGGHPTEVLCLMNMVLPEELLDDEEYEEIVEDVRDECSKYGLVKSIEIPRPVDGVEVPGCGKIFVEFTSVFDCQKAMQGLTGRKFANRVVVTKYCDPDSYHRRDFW
B1: general transcription factor II-I (human); sequence looked up; chain AQVAMSTLPVEDEESSESRMVVTFLMSALESMCKELAKSKAEVACIAVYETDVFVVGTERGRAFVNTRKDFQKDFVKYCVEEEEKAAEMHKMKSTTQANRMSVDAVEIETLRKTVEDYFCFCYGKALGKSTVVPVPYEKMLRDQSAVVVQGLPEGVAFKHPENYDLATLKWILENKAGISFIIKRPFLEPKKHVGGRVMVTDADRSILSPGGSCGPIKVKTEPTEDSGISLEMAAVTVKEESEDPDYYQYNIQAGPSETDDVDEKQPLSKPLQGSHHSSEGNEGTEMEVPAEDSTQHVPSETSEDPEVEVTIEDDDYSPPSKRPKANELPQPPVPEPANAGKRKVREFNFEKWNARITDLRKQVEELFERKYAQAIKAKGPVTIPYPLFQSHVEDLYVEGLPEGIPFRRPSTYGIPRLERILLAKERIRFVIKKHELLNSTREDLQLDKPASGVKEEWYARITKLRKMVDQLFCKKFAEALGSTEAKAVPYQKFEAHPNDLYVEGLPENIPFRSPSWYGIPRLEKIIQVGNRIKFVIKRPELLTHSTTEVTQPRTNTPVKEDWNVRITKLRKQVEEIFNLKFAQALGLTEAVKVPYPVFESNPEFLYVEGLPEGIPFRSPTWFGIPRLERIVRGSNKIKFVVKKPELVISYLPPGMASKINTKALQSPKRPRSPGSNSKVPEIEVTVEGPNNNNPQTSAVRTPTQTNGSNVPFKPRGREFSFEAWNAKITDLKQKVENLFNEKCGEALGLKQAVKVPFALFESFPEDFYVEGLPEGVPFRRPSTFGIPRLEKILRNKAKIKFIIKKPEMFETAIKESTSSKSPPRKINSSPNVNTTASGVEDLNIIQVTIPDDDNERLSKVEKARQLREQVNDLFSRKFGEAIGMGFPVKVPYRKITINPGCVVVDGMPPGVSFKAPSYLEISSMRRILDSAEFIKFTVIRPFPGLVINNQLVDQSESEGPVIQESAEPSQLEVPATEEIKETDGSSQIKQEPDPTW
B2: human annexin A1; sequence looked up; chain AMVSEFLKQAWFIENEEQEYVQTVKSSKGGPGSAVSPYPTFNPSSDVAALHKAIMVKGVDEATIIDILTKRNNAQRQQIKAAYLQETGKPLDETLKKALTGHLEEVVLALLKTPAQFDADELRAAMKGLGTDEDTLIEILASRTNKEIRDINRVYREELKRDLAKDITSDTSGDFRNALLSLAKGDRSEDFGVNEDLADSDARALYEAGERRKGTDVNVFNTILTTRSYPQLRRVFQKYTKYSKHDMNKVLDLELKGDIEKCLTAIVKCATSKPAFFAEKLHQAMKGVGTRHKALIRIMVSRSEIDMNDIKAFYQKMYGISLCQAILDETKGDYEKILVALCGGN
B3: Protein S100-A9 (human); sequence looked up; chain MTCKMSQLERNIETIINTFHQYSVKLGHPDTLNQGEFKELVRKDLQNFLKKENKNEKVIEHIMEDLDTNADKQLSFEEFIMLMARLTWASHEKMHEGDEGPGHHHKPGLGEGTP
B4: human SND1; sequence looked up; chain ASSAQSGGSSGGPAVPTVQRGIIKMVLSGCAIIVRGQPRGGPPPERQINLSNIRAGNLARRAAATQPDAKDTPDEPWAFPAREFLRKKLIGKEVCFTIENKTPQGREYGMIYLGKDTNGENIAESLVAEGLATRREGMRANNPEQNRLSECEEQAKAAKKGMWSEGNGSHTIRDLKYTIENPRHFVDSHHQKPVNAIIEHVRDGSVVRALLLPDYYLVTVMLSGIKCPTFRREADGSETPEPFAAEAKFFTESRLLQRDVQIILESCHNQNILGTILHPNGNITELLLKEGFARCVDWSIAVYTRGAEKLRAAERFAKERRLRIWRDYVAPTANLDQKDKQFVAKVMQVLNADAIVVKLNSGDYKTIHLSSIRPPRLEGENTQDKNKKLRPLYDIPYMFEAREFLRKKLIGKKVNVTVDYIRPASPATETVPAFSERTCATVTIGGINIAEALVSKGLATVIRYRQDDDQRSSHYDELLAAEARAIKNGKGLHSKKEVPIHRVADISGDTQKAKQFLPFLQRAGRSEAVVEYVFSGSRLKLYLPKETCLITFLLAGIECPRGARNLPGLVQEGEPFSEEATLFTKELVLQREVEVEVESMDKAGNFIGWLHIDGANLSVLLVEHALSKVHFTAERSSYYKSLLSAEEAAKQKKEKVWAHYEEQPVEEVMPVLEEKERSASYKPVFVTEITDDLHFYVQDVETGTQLEKLMENMRNDIASHPPVEGSYAPRRGEFCIAKFVDGEWYRARVEKVESPAKIHVFYIDYGNREVLPSTRLGTLSPAFSTRVLPAQATEYAFAFIQVPQDDDARTDAVDSVVRDIQNTQCLLNVEHLSAGCPHVTLQFADSKGDVGLGLVKEGLVMVEVRKEKQFQKVITEYLNAQESAKSARLNLWRYGDFRADDADEFGYSR
UniProt P13393, sequence (whole entry, looked up): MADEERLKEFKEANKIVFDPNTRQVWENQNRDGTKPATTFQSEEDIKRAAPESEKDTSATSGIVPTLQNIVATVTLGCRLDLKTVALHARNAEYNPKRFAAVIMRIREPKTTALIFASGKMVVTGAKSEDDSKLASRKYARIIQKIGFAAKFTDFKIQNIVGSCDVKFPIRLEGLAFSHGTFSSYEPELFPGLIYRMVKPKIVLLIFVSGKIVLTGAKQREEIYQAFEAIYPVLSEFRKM

Substance | target or system | test | system | setting | scale | measurement | result
GSGAGPETLV | construct, MBP fusion, human SCRIB, PDZ 3-4 | surface plasmon resonance | peptide | concentration not given | higher = stronger binding | normalised SPR binding response | 15.7 normalised RU
VVVGAAGVGK | HLA-A*11:01 peptide-β2M single-chain trimer | western blot, refers to: pMHC-I | peptide, 293T cells | 6 h, unit not given, with: 100 µg/mL cycloheximide | relative to: time zero | remaining protein | 0.863 and 0.854 and 0.853
Polymyxin B | Staphylococcus aureus | DiSC3(5) fluorescence |  | concentration not given, 90 min | higher = more depolarisation | membrane depolarisation | 459 a.u. and 443 a.u. and 383 a.u.
B1 | CYB5R4 knockout human cells | PP4 interaction, 3xFLAG-PP4C IP-MS |  | concentration not given | relative to: CYB5R4 KO over parental | log2 fold change | -0.8
colistin | Escherichia coli | broth microdilution | clinical isolate RKI-No_607/16 |  |  | MIC | ≤ 0.5 µg/mL
GUCUUUGGU (ssRNA) | U2AF2 | sequencing of bound RNA | RNA | motif only |  | Kd | 4.33 µM
human dynamin-1-like protein | CYB5R4 knockout human cells | PP4 interaction, 3xFLAG-PP4C IP-MS |  | concentration not given | relative to: CYB5R4 KO over parental | log2 fold change | -0.27
epoetin alfa | UT7/EPO | RT-qPCR, refers to: IRF1 |  | concentration not given, 90 min, normalized to HPRT1 | relative to: vehicle | mRNA level | 6.3 fold
EKPIDSETKM | construct, MBP fusion, human SCRIB, PDZ 3-4 | automated holdup | peptide, crude extract | concentration not given, uncorrected, unit not given | relative to: biotin control resin, higher = stronger binding | binding intensity | 0.156
CAUUUCAUU (ssRNA) | U2AF2 | sequencing of bound RNA | RNA | motif only |  | Kd | 3.76 µM
TCCTGAAGGGGCGCATATAAAAGGTCCTATCGTCGTCAAGTCAATCGGTCC (dsDNA; 5'-amino-C6 primer) | SPT15 full length assumed (Saccharomyces cerevisiae, UniProt P13393) | array | double-stranded DNA, one strand shown | TBP alone |  | Kd | 0.00609 ± 0.00055 µM
CTCATAGACT | Salmonella enterica serovar Typhimurium | RNA-seq, refers to: rpiA (SL1344_3039) | peptide, SL1344 | 5 µM, 15 min | relative to: water control | log2 fold change | -2.73
B2 (human annexin A1) | CYB5R4 knockout human cells | PP4 interaction, 3xFLAG-PP4C IP-MS |  | concentration not given | relative to: CYB5R4 KO over parental | log2 fold change | 1.57
milbemycin oxime | Saccharomyces cerevisiae | cell growth | Pdr5 deleted, Cdr1 overexpressed | 2^-5.381 µg/mL |  | OD600 | 0.971 and 0.97 and 1
B3 (Protein S100-A9) | PP6C (human) | co-immunoprecipitation, IP-MS | CYB5R4 knockout cells | concentration not given | relative to: CYB5R4 knockout over parental | log2 fold change | 1.45
SVWLRKETRV | construct, MBP fusion, human SCRIB, PDZ 3-4 | automated holdup | peptide, purified PDZ protein | concentration not given, unit not given | relative to: biotin control resin, higher = stronger binding | binding intensity | 0.403
Peginesatide | UT7/EPO | microarray, refers to: OSM mRNA (probe set 230170_at) |  | 20 nM, 90 min | relative to: vehicle | mRNA level | 36.6 fold
B4 (human SND1) | CYB5R4 knockout human cells | PP4 interaction, 3xFLAG-PP4C IP-MS |  | concentration not given | relative to: CYB5R4 KO over parental | log2 fold change | -0.81

Excerpt of the above:
Substance | target or system | test | system | setting | scale | measurement | result
B1 | CYB5R4 knockout human cells | PP4 interaction, 3xFLAG-PP4C IP-MS |  | concentration not given | relative to: CYB5R4 KO over parental | log2 fold change | -0.8
colistin | Escherichia coli | broth microdilution | clinical isolate RKI-No_607/16 |  |  | MIC | ≤ 0.5 µg/mL
